Measurements gathered from unrelated publications.
Every numbered part comes from another study and shows a few of its results, in no order. Values joined by “and” are separate records of one study, mostly repeats; a detail may differ.
Chain of UniProt P45985 (whole entry, looked up): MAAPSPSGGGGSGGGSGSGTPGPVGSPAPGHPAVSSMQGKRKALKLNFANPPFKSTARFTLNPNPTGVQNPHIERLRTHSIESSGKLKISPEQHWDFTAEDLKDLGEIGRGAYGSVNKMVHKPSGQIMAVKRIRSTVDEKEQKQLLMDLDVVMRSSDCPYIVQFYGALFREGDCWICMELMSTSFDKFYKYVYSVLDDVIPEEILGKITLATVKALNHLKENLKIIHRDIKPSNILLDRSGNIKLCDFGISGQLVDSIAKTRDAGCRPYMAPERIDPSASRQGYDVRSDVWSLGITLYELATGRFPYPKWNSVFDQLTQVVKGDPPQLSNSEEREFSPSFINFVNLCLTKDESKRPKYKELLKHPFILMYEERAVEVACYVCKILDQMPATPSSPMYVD
Chain of UniProt O14730 (whole entry, looked up): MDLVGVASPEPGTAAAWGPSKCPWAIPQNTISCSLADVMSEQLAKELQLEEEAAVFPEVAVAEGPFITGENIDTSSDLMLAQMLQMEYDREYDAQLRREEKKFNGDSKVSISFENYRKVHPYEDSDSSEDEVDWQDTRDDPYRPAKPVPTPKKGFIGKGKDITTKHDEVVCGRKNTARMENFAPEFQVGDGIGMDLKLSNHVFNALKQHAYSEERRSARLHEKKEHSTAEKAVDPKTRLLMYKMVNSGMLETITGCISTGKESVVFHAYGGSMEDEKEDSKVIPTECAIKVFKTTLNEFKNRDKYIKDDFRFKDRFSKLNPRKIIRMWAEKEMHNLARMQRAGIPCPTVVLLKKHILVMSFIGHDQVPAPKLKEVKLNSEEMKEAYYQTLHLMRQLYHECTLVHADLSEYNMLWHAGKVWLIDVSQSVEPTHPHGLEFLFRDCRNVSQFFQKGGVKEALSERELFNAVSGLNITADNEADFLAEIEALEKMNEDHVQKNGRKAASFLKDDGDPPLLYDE
Chain of UniProt Q13131 (whole entry, looked up): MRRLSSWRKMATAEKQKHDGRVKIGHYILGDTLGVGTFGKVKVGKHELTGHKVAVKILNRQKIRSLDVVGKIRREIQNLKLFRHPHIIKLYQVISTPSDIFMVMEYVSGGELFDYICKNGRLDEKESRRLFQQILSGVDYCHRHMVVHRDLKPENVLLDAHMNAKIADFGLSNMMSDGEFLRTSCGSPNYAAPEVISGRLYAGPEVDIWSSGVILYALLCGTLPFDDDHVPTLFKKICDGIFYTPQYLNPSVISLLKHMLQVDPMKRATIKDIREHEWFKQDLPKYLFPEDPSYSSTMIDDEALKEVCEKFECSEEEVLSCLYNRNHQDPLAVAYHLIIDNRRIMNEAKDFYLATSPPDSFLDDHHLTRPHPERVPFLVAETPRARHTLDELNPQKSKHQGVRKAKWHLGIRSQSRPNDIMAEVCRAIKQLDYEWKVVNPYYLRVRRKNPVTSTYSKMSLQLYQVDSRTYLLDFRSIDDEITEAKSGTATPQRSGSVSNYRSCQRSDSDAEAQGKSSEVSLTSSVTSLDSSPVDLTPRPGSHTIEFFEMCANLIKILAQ

Series 1
Target: Focal adhesion kinase 1 (PTK2, Homo sapiens, UniProt Q05397)
Chain of UniProt Q05397 (whole entry, looked up): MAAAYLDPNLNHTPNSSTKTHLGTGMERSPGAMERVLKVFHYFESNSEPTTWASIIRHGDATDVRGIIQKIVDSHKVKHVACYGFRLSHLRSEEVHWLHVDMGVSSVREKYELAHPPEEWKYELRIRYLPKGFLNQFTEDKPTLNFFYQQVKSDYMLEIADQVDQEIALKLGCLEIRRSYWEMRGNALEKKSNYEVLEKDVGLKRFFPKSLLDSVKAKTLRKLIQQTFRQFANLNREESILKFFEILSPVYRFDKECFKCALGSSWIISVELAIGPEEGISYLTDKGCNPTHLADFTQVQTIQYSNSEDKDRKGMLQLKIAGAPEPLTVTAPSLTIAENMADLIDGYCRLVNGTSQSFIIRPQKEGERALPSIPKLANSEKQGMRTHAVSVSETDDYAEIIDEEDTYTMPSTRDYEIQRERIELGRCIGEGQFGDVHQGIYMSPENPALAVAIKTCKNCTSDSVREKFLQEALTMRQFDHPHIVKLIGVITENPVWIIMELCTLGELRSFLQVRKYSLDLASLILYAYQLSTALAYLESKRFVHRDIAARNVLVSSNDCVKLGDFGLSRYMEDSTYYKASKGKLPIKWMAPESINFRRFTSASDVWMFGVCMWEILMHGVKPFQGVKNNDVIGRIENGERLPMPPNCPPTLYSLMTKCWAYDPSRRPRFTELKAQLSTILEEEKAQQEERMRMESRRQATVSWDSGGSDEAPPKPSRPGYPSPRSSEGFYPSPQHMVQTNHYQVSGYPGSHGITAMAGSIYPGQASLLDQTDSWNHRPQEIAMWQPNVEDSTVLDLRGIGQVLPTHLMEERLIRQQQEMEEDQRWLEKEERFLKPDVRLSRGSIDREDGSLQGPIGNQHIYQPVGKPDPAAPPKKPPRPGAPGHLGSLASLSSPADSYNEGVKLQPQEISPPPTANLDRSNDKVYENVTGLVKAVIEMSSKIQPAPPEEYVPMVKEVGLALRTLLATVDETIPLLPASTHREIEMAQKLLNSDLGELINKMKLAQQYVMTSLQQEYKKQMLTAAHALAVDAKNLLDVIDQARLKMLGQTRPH
Observed: enzyme activity
Action: inhibitor
Tested at: 0.5 µM
Relative to: control
SMILES | remaining activity [%]
COc1ccc(Cl)cc1NC(=O)Nc1cc(C)nc2ccccc12 | 97.3
CC(=O)O/N=C1/C(c2c(O)[nH]c3cc(Br)ccc23)=Nc2ccccc21 | 95.9
CCN1/C(=C/C(C)=O)Sc2ccc(OC)cc21 | 108
COc1cc2ncnc(N3CCN(C(=O)Nc4ccc(Oc5ccccc5)cc4)CC3)c2cc1OC | 89.4
COc1ccc(-c2cnc3c(-c4ccsc4)cnn3c2)cc1 | 93
C[S+]([O-])c1ccc(-c2nc(-c3ccncc3)c(-c3ccc(F)cc3)[nH]2)cc1 (centres unmarked) | 95.5
COc1cc2ncnc(Nc3ccc(OCc4ccccc4)cc3)c2cc1OC | 105
O=C1NC(=O)/C(=C/c2ccc3nccnc3c2)S1 | 96.5
O=c1cc(N2CCOCC2)oc2c1ccc1ccccc12 | 108
O=C(Nc1ccc(Cl)cc1)c1ccccc1NCc1ccncc1 | 95.7
Cn1cnc2cc3c(Nc4cccc(Br)c4)ncnc3cc21 | 108

Series 2
Target: DNA polymerase theta, ATPase domain (POLQ, Homo sapiens, UniProt O75417)
Chain of UniProt O75417 (whole entry, unmodified, looked up): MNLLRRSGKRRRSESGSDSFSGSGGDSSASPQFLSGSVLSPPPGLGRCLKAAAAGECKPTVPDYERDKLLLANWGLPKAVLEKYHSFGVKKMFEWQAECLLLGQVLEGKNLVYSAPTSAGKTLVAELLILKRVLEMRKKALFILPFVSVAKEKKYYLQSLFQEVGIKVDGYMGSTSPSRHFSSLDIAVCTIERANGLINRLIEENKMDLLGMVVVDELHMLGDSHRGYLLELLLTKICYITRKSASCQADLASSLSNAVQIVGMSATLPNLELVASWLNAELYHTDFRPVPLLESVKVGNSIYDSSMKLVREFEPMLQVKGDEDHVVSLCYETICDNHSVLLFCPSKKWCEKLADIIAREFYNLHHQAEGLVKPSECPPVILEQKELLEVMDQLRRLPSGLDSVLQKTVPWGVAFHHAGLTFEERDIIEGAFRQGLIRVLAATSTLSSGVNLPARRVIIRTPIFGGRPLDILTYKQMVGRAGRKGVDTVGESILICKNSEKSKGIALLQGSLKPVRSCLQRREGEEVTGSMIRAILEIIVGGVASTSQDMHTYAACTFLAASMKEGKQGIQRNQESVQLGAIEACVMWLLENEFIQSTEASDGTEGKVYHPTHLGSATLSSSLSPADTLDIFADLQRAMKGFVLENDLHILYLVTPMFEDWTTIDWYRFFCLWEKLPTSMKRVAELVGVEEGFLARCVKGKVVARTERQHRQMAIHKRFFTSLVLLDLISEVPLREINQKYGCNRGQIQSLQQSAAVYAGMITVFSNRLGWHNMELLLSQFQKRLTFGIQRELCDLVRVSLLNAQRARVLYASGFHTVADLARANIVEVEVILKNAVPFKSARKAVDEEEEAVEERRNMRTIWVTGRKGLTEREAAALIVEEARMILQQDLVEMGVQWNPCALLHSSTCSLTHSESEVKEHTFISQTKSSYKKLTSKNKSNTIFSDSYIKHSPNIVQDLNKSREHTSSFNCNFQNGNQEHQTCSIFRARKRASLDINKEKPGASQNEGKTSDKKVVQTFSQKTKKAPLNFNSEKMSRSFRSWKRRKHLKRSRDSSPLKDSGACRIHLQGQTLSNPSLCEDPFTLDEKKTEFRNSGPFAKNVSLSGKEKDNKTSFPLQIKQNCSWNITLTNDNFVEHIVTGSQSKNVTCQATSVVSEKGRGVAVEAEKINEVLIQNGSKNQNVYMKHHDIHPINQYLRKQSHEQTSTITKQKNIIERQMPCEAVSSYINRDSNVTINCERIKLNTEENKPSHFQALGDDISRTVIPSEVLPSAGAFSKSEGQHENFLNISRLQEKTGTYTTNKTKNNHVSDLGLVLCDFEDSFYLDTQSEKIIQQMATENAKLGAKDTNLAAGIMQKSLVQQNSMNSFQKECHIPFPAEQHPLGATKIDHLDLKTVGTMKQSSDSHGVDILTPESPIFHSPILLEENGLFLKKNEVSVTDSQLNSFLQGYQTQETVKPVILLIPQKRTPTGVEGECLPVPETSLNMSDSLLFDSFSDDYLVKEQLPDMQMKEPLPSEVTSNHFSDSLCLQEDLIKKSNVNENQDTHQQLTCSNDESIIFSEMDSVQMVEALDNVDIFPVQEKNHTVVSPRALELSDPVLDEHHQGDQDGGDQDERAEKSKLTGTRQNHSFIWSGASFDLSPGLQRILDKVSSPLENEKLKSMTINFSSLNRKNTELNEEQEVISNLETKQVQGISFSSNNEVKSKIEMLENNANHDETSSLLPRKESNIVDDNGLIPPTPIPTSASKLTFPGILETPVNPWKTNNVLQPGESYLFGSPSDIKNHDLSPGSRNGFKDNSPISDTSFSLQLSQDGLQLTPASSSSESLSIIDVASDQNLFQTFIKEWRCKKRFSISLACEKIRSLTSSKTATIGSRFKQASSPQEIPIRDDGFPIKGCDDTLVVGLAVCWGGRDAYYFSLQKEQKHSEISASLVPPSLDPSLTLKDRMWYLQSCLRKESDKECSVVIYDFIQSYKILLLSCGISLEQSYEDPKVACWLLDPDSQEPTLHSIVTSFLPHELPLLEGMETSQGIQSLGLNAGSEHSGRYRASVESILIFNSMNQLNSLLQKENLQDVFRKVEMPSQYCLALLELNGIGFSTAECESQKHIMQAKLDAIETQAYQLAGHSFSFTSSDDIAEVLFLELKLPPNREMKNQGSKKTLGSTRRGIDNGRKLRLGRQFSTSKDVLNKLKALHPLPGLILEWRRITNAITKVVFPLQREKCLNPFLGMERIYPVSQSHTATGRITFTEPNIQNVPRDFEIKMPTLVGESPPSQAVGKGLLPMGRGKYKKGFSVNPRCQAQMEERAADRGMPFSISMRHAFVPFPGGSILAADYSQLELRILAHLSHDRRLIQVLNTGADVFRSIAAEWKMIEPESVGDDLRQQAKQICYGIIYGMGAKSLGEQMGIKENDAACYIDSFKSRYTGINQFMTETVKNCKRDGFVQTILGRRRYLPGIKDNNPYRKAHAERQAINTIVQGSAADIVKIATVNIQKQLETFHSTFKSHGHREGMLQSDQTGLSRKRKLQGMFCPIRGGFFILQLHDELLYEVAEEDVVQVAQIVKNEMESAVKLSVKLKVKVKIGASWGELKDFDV
Observed: enzyme activity
Action: inhibitor
Tested at: 77 µM
Relative to: untreated
Compound | remaining activity
CC[C@]12CCCN3CCc4c(n(c5ccccc45)[C@@](O)(C(=O)OC)C1)[C@@H]32 | 98.5%
Cc1nc(-c2ccc(OCC(C)C)c(C#N)c2)sc1C(=O)O | 87.4%
CC[C@H]1OC(=O)C[C@@H](O)[C@H](C)[C@@H](O[C@@H]2O[C@H](C)[C@@H](O[C@H]3C[C@@](C)(O)[C@@H](O)[C@H](C)O3)[C@H](N(C)C)[C@H]2O)[C@@H](CC=O)C[C@@H](C)C(=O)/C=C/C(C)=C/[C@@H]1CO[C@@H]1O[C@H](C)[C@@H](O)[C@@H](OC)[C@H]1OC | 97.5%
COc1c(O)cc2c(c1O)[C@@H]1O[C@H](CO)[C@@H](O)[C@H](O)[C@H]1OC2=O | 106% and 101%
CC(C)OC(=O)OCOP(=O)(CO[C@H](C)Cn1cnc2c(N)ncnc21)OCOC(=O)OC(C)C | 96.2%

Series 3
Compound: Cc1c(C(=O)O)cc(-c2ccc(C3CCNCC3)cc2)c2ccc(-c3ccc(C(F)(F)F)cc3)cc12
Technique: competition with immobilised ligand
Tested at: 1 µM
target | assay | remaining binding [%]
EPHA4 (Homo sapiens, UniProt P54764) | cell-free assay | 100
BRSK1 (Homo sapiens, UniProt Q8TDC3) | binding | 100
Tyrosine-protein kinase ABL1, phosphorylated (ABL1, Homo sapiens, UniProt P00519, F317L) | binding | 100
PRKCE (Homo sapiens, UniProt Q02156) | cell-free assay | 100
ALK (Homo sapiens, UniProt Q9UM73, L1196M) | cell-free assay | 100
Tyrosine-protein kinase ABL1, phosphorylated (ABL1, Homo sapiens, UniProt P00519, M351T) | binding | 100
TRPM6 (Homo sapiens, UniProt Q9BX84) | cell-free assay | 100
MAP4K1 (Homo sapiens, UniProt Q92918) | binding | 90
Cyclin-dependent kinase 4, with cyclin D1 (CDK4, Homo sapiens, UniProt P11802) | binding | 100
SRPK2 (Homo sapiens, UniProt P78362) | binding | 82
CIT (Homo sapiens, UniProt O14578) | binding | 100
Ribosomal protein S6 kinase alpha-2, N-terminal kinase domain (RPS6KA2, Homo sapiens, UniProt Q15349) | binding | 100
IKBKB (Homo sapiens, UniProt O14920) | cell-free assay | 100
RIOK3 (Homo sapiens, UniProt O14730) | binding | 100
MAP2K4 (Homo sapiens, UniProt P45985) | binding | 100
MAP3K10 (Homo sapiens, UniProt Q02779) | binding | 100
PRKAA1 (Homo sapiens, UniProt Q13131) | cell-free assay | 98
PDGFRA (Homo sapiens, UniProt P16234) | cell-free assay | 100

Series 4
Target: His6 tag
Technique: AlphaScreen counter screen
Tested at: concentration not given
Structure (SMILES) | inhibition
COC(=O)c1[nH]c2ccccc2c1NC(=O)CN(C)CC1OCCO1 | -15%
Cc1c(C(=O)N2CCCCC2)sc2nc[nH]c(=O)c12 | 3.3%
CC(C)CNc1nccn2c(-c3cccnc3)cnc12 | 14.8%
OC1CCCN(Cc2c(-c3ccc(F)cc3)[nH]c3ncccc23)C1 (centres unmarked) | 0.9%
O=C(Nc1ccc(F)cc1)c1n[nH]c2ccccc12 | 2.75%
O=C(NCC(F)(F)F)c1n[nH]c2ccccc12 | 1.5%
Cc1sc2nc[nH]c(=O)c2c1-c1ccc(F)cc1 | 0.45%
COc1ccnc(C[S+]([O-])c2nc3ccc(OC(F)F)cc3[nH]2)c1OC (centres unmarked) | 5.5%
COc1ccc(C(=O)Nc2ccc3[nH]ncc3c2)c(OC)c1 | 5.5%
CCS(=O)(=O)N1CC(CC#N)(n2cc(-c3ncnc4[nH]ccc34)cn2)C1 | 9.5%

Some of these lines once more (series 2):
Compound | remaining activity
CC[C@]12CCCN3CCc4c(n(c5ccccc45)[C@@](O)(C(=O)OC)C1)[C@@H]32 | 98.5%
Cc1nc(-c2ccc(OCC(C)C)c(C#N)c2)sc1C(=O)O | 87.4%
CC[C@H]1OC(=O)C[C@@H](O)[C@H](C)[C@@H](O[C@@H]2O[C@H](C)[C@@H](O[C@H]3C[C@@](C)(O)[C@@H](O)[C@H](C)O3)[C@H](N(C)C)[C@H]2O)[C@@H](CC=O)C[C@@H](C)C(=O)/C=C/C(C)=C/[C@@H]1CO[C@@H]1O[C@H](C)[C@@H](O)[C@@H](OC)[C@H]1OC | 97.5%
CC(C)OC(=O)OCOP(=O)(CO[C@H](C)Cn1cnc2c(N)ncnc21)OCOC(=O)OC(C)C | 96.2%
